Measurements collected from several papers.
Parts stem from different laboratories: compare values within a part only.

Set 1
Target: Ras GTPase-activating protein-binding protein 1, full length (G3BP1, Homo sapiens, UniProt Q13283)
UniProt Q13283, sequence (whole entry, looked up): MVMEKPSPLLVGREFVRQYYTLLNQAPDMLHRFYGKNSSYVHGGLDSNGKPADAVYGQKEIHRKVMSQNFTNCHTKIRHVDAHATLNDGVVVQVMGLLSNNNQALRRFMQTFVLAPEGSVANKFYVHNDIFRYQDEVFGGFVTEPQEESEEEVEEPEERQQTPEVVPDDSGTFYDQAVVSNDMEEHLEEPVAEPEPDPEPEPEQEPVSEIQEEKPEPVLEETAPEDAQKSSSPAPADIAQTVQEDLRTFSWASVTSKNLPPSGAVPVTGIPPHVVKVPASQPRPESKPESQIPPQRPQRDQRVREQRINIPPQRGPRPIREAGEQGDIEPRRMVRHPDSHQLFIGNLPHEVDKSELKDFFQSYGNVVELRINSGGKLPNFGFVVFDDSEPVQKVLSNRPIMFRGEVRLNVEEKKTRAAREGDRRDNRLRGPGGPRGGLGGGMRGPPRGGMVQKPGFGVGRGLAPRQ
Technique: RNA Bind-n-Seq
Molecule type: RNA
Sample: in vitro
Tested at: 200 nM
Setting: whole 134-nt RNA, ends assumed
Together with: 150 mM LiCl
Relative to: input library
Direction: higher = stronger binding
Each molecule: 7-deaza-guanosine replaces G
With `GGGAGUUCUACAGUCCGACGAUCGUCCUGUGCUACACAUCGUAUGUACCGAAUCGGUUUUUGGUUUUUGGGGUUUUUGGGGAAAGUAUUAUGUUACGCCGUUCGGAUCUGCACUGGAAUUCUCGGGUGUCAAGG` the log2 enrichment was -0.0501.
The log2 enrichment of `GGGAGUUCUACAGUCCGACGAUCCCUGUGCUACACAUCGUAUGUACCGAAUCGGUUUUUUUGGGUUUUUUUGGUUUUUUUGGGAAAGUAUUAUGUUACGCCGUUCGGAUCUGCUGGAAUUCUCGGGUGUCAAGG` is reported as 0.413.
`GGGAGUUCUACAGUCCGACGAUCUUCCCUCUGUUUUAUUUUUCCCCCGUGUGUCCCUACUAUGGUCAGAAAGCCUGUUGUGUCCACCAUCUCCAAAGGAGGUUACCUGCAGGGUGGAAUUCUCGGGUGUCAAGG` has a log2 enrichment of 0.634.
`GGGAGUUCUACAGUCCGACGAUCGCAGGAAGUAAAAACAAAUGGAAAUGCUUCGGAUAGUGGCAGGGGUGGGGGUUGCUAAGGAAAGGGUGGGAUGGGAGUGGGGAAAGAGUUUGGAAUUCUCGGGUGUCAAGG` has a log2 enrichment of -0.352.
The log2 enrichment of `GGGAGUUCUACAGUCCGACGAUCAAGUCCUGUGCUACACAUCGUAUGUACCGAAUCGGGAAAAAGGGAAAAAGGGUGGGAAAGUAUUAUGUUACGCCGUUCGGAUCUGCACUUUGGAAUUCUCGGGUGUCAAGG` is reported as -0.331.

Set 2
Target: RNA binding protein fox-1 homolog 2, RRM domain, GST-SBP tag (RBFOX2, Homo sapiens, UniProt O43251-10, residues 100-194)
Technique: RNA Bind-n-Seq
Molecule type: RNA
Sample: in vitro
Tested at: 365 nM
Setting: natural RNA segment, single round, ends assumed
Relative to: no-protein control
Direction: higher = stronger binding
Target sequence (chain): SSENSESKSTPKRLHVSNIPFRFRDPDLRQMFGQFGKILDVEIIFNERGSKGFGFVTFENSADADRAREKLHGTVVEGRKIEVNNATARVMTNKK
`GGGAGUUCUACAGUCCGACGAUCCAGCUUCUCUGAUGGGAAAGUUCCUUUUUUGGCUUAACACUCACCCUUUCUUCACACUCACAUUUACCAAUGACUCUGCUCCGUUUUUGGAGCAGACUGUUUUAAGUUGCUGGAAUUCUCGGGUGCCAA`: “RBNS enrichment (R)” 0.247.
`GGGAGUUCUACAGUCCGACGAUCGCCCACUGUCCCACUCCCACAUGUCUGGGCACCUGCCCUGGGCUGAGGCCAGGCUGCUCCAAGGGCCGCAUGAGCCCUAAUCUGCCACAGAGCAACCCAGGUUAAACACAUGGAAUUCUCGGGUGCCAA` — result for “RBNS enrichment (R)”: 0.459.
`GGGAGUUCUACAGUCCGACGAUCUGAUGCUGAAACCAUGCUGGACUGCCCCAGGCUAAGGCAGGACUGUCUGUGCAAGGCACUACAGCUAUUCACGUGGAGUUACCGCUGCAUUUUCAAAGGUCGGAGAUCUUUGGAAUUCUCGGGUGCCAA`: “RBNS enrichment (R)” 0.406.
For `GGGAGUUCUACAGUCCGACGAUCUCCAUCAACACUGCGCCGGGUACCAUGGACGGCCCCGUCAGCCACACCUGUCAGCCCAAGCAGAGUGAUUCAGGGGCUCCCCGGGGGCAGACACCUGUGCACCCCAUGAGUGGAAUUCUCGGGUGCCAA`, “RBNS enrichment (R)” read 0.301.
For `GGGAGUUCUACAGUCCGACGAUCGGUAAAUGCUAAACUUUUGUGUCUUUUGCCUUUUUAAAGGAAUUGUUAACAUUGGAAUUGAGGGUAUGUACAGAGAAGUUGGUGUCAACACCAUUUAAAAAGUCAUAUUUUGGAAUUCUCGGGUGCCAA`, “RBNS enrichment (R)” read 0.419.
Under “RBNS enrichment (R)”, `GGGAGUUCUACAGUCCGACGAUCAUCAUUUCCCAUCCCGCUGUGUCUCUGGGUCUCCCUCCUCCCCAUCUCCACCCCCCAAGAGCCAUUGAGUGAGGUGCUUUUAGCCCUUUUGACUAAUUAGAAAUUCAGGCUGGAAUUCUCGGGUGCCAA` is recorded as 0.671.
Under “RBNS enrichment (R)”, `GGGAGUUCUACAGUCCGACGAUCCUCCUCCCAAAUAUGUGCUCAGUUCCAUUAGAUUCUAUCAGAAGCACAAACAUCAGCAAAACUUUGCCUCCCAAGAUAUAAAACCUAGAAACAGACCUGUGUUCCACCCUUGGAAUUCUCGGGUGCCAA` is recorded as 0.863.
For `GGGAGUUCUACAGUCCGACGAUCUUUACAGGAGGUUGUGGAUGCUCCAGGGCAGCCUCCACCUUGCUCUUCUUUCUGAGAGUUGGCUCAGGCAGACAAGAGCUGCUGUCCUUUUAGGAAUAUGUUCAAUGCAAUGGAAUUCUCGGGUGCCAA`, “RBNS enrichment (R)” read 0.612.

Set 3
Target: Interferon regulatory factor 5, full length, phosphomimetic (IRF5, Homo sapiens, UniProt Q13568-2, residues 1-514, S451D/S453D/S456D/S462D)
Technique: protein-binding microarray
Molecule type: double-stranded DNA, one strand shown
Sample: in vitro
Tested at: 940 nM top
Setting: 60-bp whole probe
Together with: salmon DNA 0.4 mg/ml
Relative to: random background probes
Direction: higher = stronger binding
All sequences stand within: GCCTAGCAC … GTCTTGATTCGCTTGACGCTGCTG
Under “fitted relative affinity”, `GGTGTAAGGAACTGAAGTGAGTGCTAG` is recorded as -0.351 z-score.
For `GACGGTTTCGGTGTCGGGACGTGCTAG`, “fitted relative affinity” read 11.7 z-score.
`TTAGATTTCAGTTTCGATTTGTGCTAG` — result for “fitted relative affinity”: 8.85 z-score.
Under “fitted relative affinity”, `GACGGTTTCGGTATCGGGACGTGCTAG` is recorded as 13.7 z-score.
`GACGGTCTCGGTATCGGGACGTGCTAG` — result for “fitted relative affinity”: 5.04 z-score.
For `TTAGGTATCCTACTGCTCTAGTGCTAG`, “fitted relative affinity” read 0.0279 z-score.
Under “fitted relative affinity”, `TATGTTCACTATTTAAGGCCGTGCTAG` is recorded as -0.119 z-score.
`TTCGGTCTCGGTTTCGGTTAGTGCTAG`: “fitted relative affinity” 10.3 z-score.
`GACGGTCTCGGACAGGGGACGTGCTAG` — result for “fitted relative affinity”: 0.599 z-score.
Under “fitted relative affinity”, `GGATGAAGCGCTTCTCGAGTGGTGCTA` is recorded as -0.658 z-score.
Under “fitted relative affinity”, `CCCACTTTCACTTCTCCCTTGTGCTAG` is recorded as 5.49 z-score.
Under “fitted relative affinity”, `GACGGACAGCTTATCCTGACGTGCTAG` is recorded as -0.632 z-score.
Under “fitted relative affinity”, `GACGAACTGGGGAATCGAGACGTGCTA` is recorded as 0.459 z-score.
For `TCAAAACTCTTTATTTAACTGTGCTAG`, “fitted relative affinity” read 0.758 z-score.
Under “fitted relative affinity”, `TTAGGACTGTACTATCGGTTAGTGCTA` is recorded as 0.168 z-score.

Set 4
Molecule: PhoQ, residues 284 288 289 292 302 303 TSTLRA
Technique: Sort-seq
Measured: YFP reporter
Sample: E. coli
Setting: PhoQ-PhoP variant library
Together with: 10 µM Mg2+
Relative to: high Mg2+ state
Direction: higher = stronger signaling
The fold induction was 2.53 (PhoP, residues 12 14 15 18 19 VGHWL (Escherichia coli, UniProt P23836)).
The fold induction was 14.8 (PhoP, residues 12 14 15 18 19 NFFVT (Escherichia coli, UniProt P23836)).
PhoP, residues 12 14 15 18 19 TPWTL (Escherichia coli, UniProt P23836) — fold induction: 8.46.
